Measurements collected from several papers.
Protocols differ between the studies behind these lines. “And” joins repeats or separate records; there may be more than shown. ± marks the error that the study gave.
HTR1B: 5-hydroxytryptamine receptor 1B (HTR1B, Homo sapiens, UniProt P28222)
Chain of UniProt P28222 (whole entry, looked up): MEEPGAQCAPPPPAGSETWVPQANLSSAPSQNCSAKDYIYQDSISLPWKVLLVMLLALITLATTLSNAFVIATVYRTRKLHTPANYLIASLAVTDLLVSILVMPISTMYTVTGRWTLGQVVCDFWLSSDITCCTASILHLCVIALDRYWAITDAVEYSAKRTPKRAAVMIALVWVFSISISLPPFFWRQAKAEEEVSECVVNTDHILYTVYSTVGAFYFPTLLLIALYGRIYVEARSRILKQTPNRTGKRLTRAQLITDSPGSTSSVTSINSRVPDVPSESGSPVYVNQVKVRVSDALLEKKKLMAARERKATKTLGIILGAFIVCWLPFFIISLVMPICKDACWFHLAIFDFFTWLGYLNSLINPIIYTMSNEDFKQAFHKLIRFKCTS
STK38: Serine/threonine-protein kinase 38 (STK38, Homo sapiens, UniProt Q15208)
Chain of UniProt Q15208 (whole entry, looked up): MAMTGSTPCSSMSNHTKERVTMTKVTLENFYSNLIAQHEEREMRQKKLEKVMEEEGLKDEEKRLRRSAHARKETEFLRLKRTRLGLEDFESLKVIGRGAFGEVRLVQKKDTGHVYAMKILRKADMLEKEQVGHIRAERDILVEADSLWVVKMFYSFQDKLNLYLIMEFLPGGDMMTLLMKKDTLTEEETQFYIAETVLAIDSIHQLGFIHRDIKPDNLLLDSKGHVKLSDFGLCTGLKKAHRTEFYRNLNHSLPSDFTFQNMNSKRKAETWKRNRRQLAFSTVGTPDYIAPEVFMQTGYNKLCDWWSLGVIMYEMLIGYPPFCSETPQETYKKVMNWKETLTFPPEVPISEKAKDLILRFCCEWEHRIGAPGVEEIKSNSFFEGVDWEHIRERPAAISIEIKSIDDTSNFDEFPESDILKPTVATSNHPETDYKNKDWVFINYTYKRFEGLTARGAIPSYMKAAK
BRD3 BD2: Bromodomain-containing protein 3, BD2 (BRD3, Homo sapiens, UniProt Q15059)
Chain of UniProt Q96S37 (whole entry, looked up): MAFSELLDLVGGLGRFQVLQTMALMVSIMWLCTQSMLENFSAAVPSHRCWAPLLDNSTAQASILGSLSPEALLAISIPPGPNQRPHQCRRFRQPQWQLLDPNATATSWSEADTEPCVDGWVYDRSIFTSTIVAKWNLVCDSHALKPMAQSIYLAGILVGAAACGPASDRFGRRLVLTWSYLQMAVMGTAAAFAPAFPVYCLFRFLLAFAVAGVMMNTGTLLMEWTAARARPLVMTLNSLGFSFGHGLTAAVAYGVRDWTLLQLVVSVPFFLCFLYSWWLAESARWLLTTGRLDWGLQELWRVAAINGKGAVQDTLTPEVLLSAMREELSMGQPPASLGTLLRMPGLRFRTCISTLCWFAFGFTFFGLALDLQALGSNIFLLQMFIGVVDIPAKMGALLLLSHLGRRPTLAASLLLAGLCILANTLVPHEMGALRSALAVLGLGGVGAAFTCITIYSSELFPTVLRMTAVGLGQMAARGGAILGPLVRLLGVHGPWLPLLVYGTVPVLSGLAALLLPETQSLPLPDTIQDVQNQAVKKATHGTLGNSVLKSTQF
Chain of UniProt P49840 (whole entry, looked up): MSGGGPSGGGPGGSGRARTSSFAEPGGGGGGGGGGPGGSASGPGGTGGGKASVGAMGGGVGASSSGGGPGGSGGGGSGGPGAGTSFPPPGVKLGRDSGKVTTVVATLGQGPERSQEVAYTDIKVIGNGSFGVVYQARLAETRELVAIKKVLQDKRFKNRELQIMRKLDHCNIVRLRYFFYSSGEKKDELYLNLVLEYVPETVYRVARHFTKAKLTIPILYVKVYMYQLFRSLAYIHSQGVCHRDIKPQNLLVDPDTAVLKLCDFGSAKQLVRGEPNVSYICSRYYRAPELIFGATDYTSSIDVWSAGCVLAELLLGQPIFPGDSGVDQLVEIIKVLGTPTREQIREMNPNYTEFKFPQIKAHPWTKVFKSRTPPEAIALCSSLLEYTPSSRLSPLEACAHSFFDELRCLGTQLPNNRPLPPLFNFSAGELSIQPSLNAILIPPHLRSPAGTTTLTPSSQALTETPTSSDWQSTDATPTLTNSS
Chain of UniProt P32239 (whole entry, looked up): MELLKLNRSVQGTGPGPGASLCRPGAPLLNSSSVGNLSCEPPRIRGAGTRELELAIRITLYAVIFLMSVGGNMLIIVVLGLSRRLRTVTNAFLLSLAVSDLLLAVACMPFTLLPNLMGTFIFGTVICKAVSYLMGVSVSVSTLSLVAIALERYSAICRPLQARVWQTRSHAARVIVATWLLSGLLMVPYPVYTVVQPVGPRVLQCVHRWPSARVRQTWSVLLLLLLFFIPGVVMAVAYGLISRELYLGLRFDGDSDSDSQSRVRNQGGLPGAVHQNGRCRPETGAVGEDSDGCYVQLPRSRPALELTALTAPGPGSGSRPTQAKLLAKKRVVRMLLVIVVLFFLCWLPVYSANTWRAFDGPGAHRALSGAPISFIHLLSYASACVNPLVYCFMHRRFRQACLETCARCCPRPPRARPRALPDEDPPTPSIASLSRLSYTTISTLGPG
Chain of UniProt Q460N3 (whole entry, looked up): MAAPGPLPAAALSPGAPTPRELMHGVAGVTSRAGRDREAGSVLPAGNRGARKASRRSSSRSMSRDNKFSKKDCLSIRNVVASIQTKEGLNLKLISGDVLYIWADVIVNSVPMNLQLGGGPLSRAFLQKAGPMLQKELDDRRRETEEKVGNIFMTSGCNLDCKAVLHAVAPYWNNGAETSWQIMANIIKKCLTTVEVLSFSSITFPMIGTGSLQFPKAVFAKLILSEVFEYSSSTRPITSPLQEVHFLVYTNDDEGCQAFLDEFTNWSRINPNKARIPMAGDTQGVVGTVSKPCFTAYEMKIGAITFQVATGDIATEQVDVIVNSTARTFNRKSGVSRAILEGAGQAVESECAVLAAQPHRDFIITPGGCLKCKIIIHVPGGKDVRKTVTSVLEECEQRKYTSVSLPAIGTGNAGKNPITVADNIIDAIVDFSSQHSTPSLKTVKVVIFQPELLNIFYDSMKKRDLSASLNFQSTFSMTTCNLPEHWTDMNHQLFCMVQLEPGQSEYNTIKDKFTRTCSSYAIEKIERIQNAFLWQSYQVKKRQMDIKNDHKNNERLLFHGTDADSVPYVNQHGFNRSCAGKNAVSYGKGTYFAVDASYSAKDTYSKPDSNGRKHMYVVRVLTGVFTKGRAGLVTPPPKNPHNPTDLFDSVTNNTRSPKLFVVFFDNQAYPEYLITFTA
Chain of UniProt Q8N884 (whole entry, looked up): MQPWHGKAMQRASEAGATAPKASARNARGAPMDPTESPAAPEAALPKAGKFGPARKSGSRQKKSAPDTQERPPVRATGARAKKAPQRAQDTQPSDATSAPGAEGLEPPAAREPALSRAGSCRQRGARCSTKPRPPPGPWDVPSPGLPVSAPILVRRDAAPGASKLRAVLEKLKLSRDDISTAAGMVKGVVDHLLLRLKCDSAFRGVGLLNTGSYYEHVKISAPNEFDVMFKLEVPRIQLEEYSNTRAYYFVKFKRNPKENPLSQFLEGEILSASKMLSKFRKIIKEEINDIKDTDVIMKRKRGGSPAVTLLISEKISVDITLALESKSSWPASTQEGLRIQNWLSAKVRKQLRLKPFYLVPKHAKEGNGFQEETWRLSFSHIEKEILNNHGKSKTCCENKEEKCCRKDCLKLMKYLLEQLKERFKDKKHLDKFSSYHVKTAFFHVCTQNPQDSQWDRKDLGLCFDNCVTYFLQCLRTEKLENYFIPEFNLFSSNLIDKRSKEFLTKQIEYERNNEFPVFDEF
Chain of UniProt P10721 (whole entry, unmodified, looked up): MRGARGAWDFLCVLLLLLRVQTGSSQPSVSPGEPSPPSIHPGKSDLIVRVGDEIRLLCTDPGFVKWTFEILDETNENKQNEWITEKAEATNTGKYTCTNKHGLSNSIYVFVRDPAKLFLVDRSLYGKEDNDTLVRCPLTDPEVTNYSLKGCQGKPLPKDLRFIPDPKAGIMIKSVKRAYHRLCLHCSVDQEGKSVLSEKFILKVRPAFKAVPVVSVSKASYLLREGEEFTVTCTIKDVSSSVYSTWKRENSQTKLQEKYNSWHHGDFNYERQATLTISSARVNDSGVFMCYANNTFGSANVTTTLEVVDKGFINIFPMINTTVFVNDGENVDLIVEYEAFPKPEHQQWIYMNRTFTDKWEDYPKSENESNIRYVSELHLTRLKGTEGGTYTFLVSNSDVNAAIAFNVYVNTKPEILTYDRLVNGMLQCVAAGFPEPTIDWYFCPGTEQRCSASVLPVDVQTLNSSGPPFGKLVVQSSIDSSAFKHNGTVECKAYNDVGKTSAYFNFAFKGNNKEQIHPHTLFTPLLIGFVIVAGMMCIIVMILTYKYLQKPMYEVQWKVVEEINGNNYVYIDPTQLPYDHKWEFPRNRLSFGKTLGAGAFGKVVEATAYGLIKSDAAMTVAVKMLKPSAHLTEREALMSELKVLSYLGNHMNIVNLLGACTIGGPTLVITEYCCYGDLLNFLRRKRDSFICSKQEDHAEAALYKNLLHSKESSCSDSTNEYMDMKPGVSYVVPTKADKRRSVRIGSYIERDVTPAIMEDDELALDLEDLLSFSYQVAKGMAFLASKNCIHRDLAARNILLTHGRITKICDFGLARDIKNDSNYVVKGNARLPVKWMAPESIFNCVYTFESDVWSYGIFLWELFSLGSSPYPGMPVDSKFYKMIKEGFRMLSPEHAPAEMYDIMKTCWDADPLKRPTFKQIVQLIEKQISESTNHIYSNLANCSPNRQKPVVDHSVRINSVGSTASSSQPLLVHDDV
Chain of UniProt Q8N6T7 (whole entry, looked up): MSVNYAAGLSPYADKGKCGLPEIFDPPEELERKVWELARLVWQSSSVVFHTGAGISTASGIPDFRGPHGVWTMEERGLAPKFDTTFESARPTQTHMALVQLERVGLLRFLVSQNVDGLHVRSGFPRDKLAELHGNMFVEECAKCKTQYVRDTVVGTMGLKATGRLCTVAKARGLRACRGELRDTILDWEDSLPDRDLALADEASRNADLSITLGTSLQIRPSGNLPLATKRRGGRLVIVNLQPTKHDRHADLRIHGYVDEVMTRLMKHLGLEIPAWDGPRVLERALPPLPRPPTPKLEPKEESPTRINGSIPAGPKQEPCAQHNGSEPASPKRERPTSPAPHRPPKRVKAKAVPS

SMILES	target	test	test system	conditions	how to read	inhibition
Cc1nn(-c2nc3c(F)cc(F)cc3s2)c(O)c1C(c1ccc(C(F)(F)F)cc1)c1c(C)nn(-c2nc3c(F)cc(F)cc3s2)c1O	CGAS (Homo sapiens, UniProt Q8N884)	enzyme activity, inhibitor, pyrophosphatase-coupled	–	200 µM, 1.5 h, together with: HT-DNA	–	90.6%
Cc1nc2sccn2c(=O)c1CCN1CCC(=C(c2ccccc2)c2ccc(F)cc2)CC1	Diacylglycerol kinase beta (Dgkb, Rattus norvegicus, UniProt P49621)	enzyme activity, DAG kinase	HEK293T lysate overexpressing	50 µM, together with: [γ32P]-ATP	baseline: DMSO control	~63%
Cc1ccc(S(=O)(=O)n2cc(/C=N/NC(=S)Nc3ccc(Cl)cc3)c3ccccc32)cc1	mushroom tyrosinase	enzyme activity, inhibitor	–	0.5 mM, together with: L-DOPA substrate	–	92.9%
CCNC(=O)c1cnn(-c2ccc(-n3ccc(Cl)c(Cl)c3=O)cc2)c1C(F)(F)F	TRPC6 (Homo sapiens, UniProt Q9Y210)	ion current, inhibitor, whole-cell patch clamp	–	10 µM, together with: carbachol	–	inhibited
CN1CCN(c2cc(-c3ccncc3)c(-c3ccc4ccccc4c3)nn2)CC1	LPAR3 (Homo sapiens, UniProt Q9UBY5)	antagonist, FLIPR	–	10 µM	–	-0.2%
O=C(Nc1cccc2c(=O)cc(-c3nnn[nH]3)oc12)c1ccc(OCCCCc2ccccc2)cc1	Volume-regulated anion channel subunit LRRC8C, part LRRC8A IL1 chimera (LRRC8C, Homo sapiens, UniProt Q8TDW0, E6A)	ion current, inhibitor, whole-cell patch clamp	HCT LRRC8-/- cells	0.1 µM, -100 mV	–	12.3% and 32.6% and 25.6% and 12.6% and 21.5%
COc1ccc2c(c1)C(=O)N(CCCN1CCN(c3ccccc3OC)CC1)C2	HTR1B	radioligand binding	–	concentration not given, together with: [3H]5-CT	–	72.3%
O=C(NO)c1ccc(CN2CCCCc3ccccc32)c(F)c1	SLC6A4 (Homo sapiens, UniProt P31645)	radioligand binding, PDSP radioligand binding	–	10 µM	–	-4.91%
COc1cc(C(=O)NS(=O)(=O)c2ccccc2C)ccc1Cc1cn(C)c2ccc(NC(=O)OC3CCCC3)cc12	Volume-regulated anion channel subunit LRRC8C, part LRRC8A IL1 chimera (LRRC8C, Homo sapiens, UniProt Q8TDW0, L105R)	ion current, inhibitor, whole-cell patch clamp	HCT LRRC8-/- cells	30 µM, +100 mV	–	89.6% and 96.1% and 88.2% and 91.7% and 94% and 84.9%
CC[C@@H]1[C@H](F)C(=O)N[C@@H]1COc1nccc2cc(C(N)=O)c(OC)cc12	IRAK3 (Homo sapiens, UniProt Q9Y616)	ATP-site probe binding, ActivX profiling	THP-1 cell lysate	0.01 mM, Lys1 site	–	-3.6%
Cc1ncc([N+](=O)[O-])n1C(=NO)c1ccccc1C(F)(F)F	CAMKII kinase	–	–	10 µM	–	9.55%
O=C(NS(=O)(=O)C1CC1)c1cc2ccccc2n1Cc1ccc(C2CC2)c2ccccc12	SLC22A12 (Homo sapiens, UniProt Q96S37)	uric acid uptake, inhibitor	HEK293 transiently expressing URAT1	20 µM, together with: [14C]uric acid	–	83.5% and 119%
CN(C(=O)n1cnc(-c2ccc[n+]([O-])c2)c1)C1CCCCC1	CCKBR (Homo sapiens, UniProt P32239)	–	–	10 µM	–	12%
Cc1ccnc(OC[C@H]2CN(CC(=O)N3CCc4ccccc43)CCO2)c1	HTR1B	radioligand binding	–	concentration not given, together with: [3H]5-CT	–	1.9%
Cc1ccc(S(=O)(=O)n2cc(/C=N/NC(=S)Nc3ccc(F)cc3)c3ccccc32)cc1	mushroom tyrosinase	enzyme activity, inhibitor	–	0.5 mM, together with: L-DOPA substrate	–	89.8%
CNC(=O)[C@H](CNC(=O)CCn1c(=O)[nH]c(=O)c2ccccc21)NC(=O)c1cnc2ccccc2c1	PARP15 (Homo sapiens, UniProt Q460N3)	enzyme activity, inhibitor	–	concentration not given	–	inhibited
COc1ccc(F)cc1C(=O)NCc1ccc(-c2nn([C@@H](C)C(F)(F)F)c(N)c2C(N)=O)cc1	CSK (Homo sapiens, UniProt P41240)	probe binding, competitive chemoproteomics	human PBMCs	1 µM	–	7.1%
Cc1ncccc1OC[C@@H]1CN(CCN2CCc3ccccc32)CCO1	HTR1B	radioligand binding	–	concentration not given, together with: [3H]5-CT	–	8%

SMILES	target	test	test system	conditions	how to read	inhibition
Clc1ccc(-c2cn[nH]c2)s1	DYRK1A (Homo sapiens, UniProt Q13627)	enzyme activity	–	10 µM	–	> 50%
COc1ccccc1N1CCN(CCCCN2CCc3ccccc3C2=O)CC1	HTR1B	radioligand binding	–	concentration not given, together with: [3H]5-CT	–	84.2%
Cc1ccc(S(=O)(=O)n2cc(/C=N/NC(=S)Nc3ccccc3F)c3ccccc32)cc1	mushroom tyrosinase	enzyme activity, inhibitor	–	0.5 mM, together with: L-DOPA substrate	–	91.5%
COc1ccc2c(c1)C(=O)N(CCN1CCN(c3ccccc3OC)CC1)C2	HTR1B	radioligand binding	–	concentration not given, together with: [3H]5-CT	–	83%
Cc1ccc(C(=O)Nc2ccc(S(=O)(=O)O)c3cc(S(=O)(=O)O)cc(S(=O)(=O)O)c23)cc1NC(=O)c1cccc(NC(=O)Nc2cccc(C(=O)Nc3cc(C(=O)Nc4ccc(S(=O)(=O)O)c5cc(S(=O)(=O)O)cc(S(=O)(=O)O)c45)ccc3C)c2)c1	SIRT6 (Homo sapiens, UniProt Q8N6T7)	enzyme activity, inhibitor	–	10 µM, together with: myristoylated substrate	–	< 5%
Cc1ccc(NC(=S)N/N=C/c2cn(S(=O)(=O)c3ccc(C)cc3)c3ccccc23)cc1	mushroom tyrosinase	enzyme activity, inhibitor	–	0.5 mM, together with: L-DOPA substrate	–	91.7%
c1ccc(OC[C@@H]2CN(CCN3CCc4ccccc43)CCO2)cc1	HTR1B	radioligand binding	–	concentration not given, together with: [3H]5-CT	–	43.5%
CCN1CCN(Cc2ccc(NC(=O)c3ccc(C)c(Oc4ccnc5[nH]ccc45)c3)cc2C(F)(F)F)CC1	Acylglycerol kinase, mitochondrial (Homo sapiens, UniProt Q53H12)	KiNativ	Huh-7 live cells	10 µM	–	< 35%
COc1cccc(OC[C@@H]2CN(CC(=O)N3CCc4ccccc43)CCO2)c1	HTR1B	radioligand binding	–	concentration not given, together with: [3H]5-CT	–	50.9%
C#Cc1cc(-c2cc(Nc3nc(N[C@@H](C)c4ccc(F)cn4)ncc3Cl)n[nH]2)ccc1C=O	GSK3A (Homo sapiens, UniProt P49840)	enzyme activity, inhibitor	–	0.2 µM	–	7.01%
Cc1cc(-c2ccnc3[nH]cc(F)c23)cc(F)c1[C@@]1(O)[C@H](C)CN(C2CCS(=O)(=O)CC2)C[C@@H]1C	STK38	ATP probe binding, KiNativ, item: Lys1 site	HEK293T cell lysate	1 µM	–	1.3%
[2H]c1cc(C)c(NC(=O)c2cnc(Nc3cc(N4CCC(O)CC4)nc(C)n3)s2)c(Cl)c1	YES1 (Homo sapiens, UniProt P07947, T348I)	–	–	0.001 µM	–	< 50%
COc1cc(-c2cc(C(C)=O)n3ccccc23)c(OC)cc1Cn1ccnc1	BRD3 BD2	–	–	1 µM	–	-1.29%
[2H]c1cc(C)c(NC(=O)c2cnc(Nc3cc(N4CCCCC4)nc(C)n3)s2)c(Cl)c1	KIT (Homo sapiens, UniProt P10721, V560G)	–	–	0.01 µM	–	30 to 90%
COc1cccc(OC[C@H]2CN(CCN3CCc4ccccc43)CCO2)c1	HTR1B	radioligand binding	–	concentration not given, together with: [3H]5-CT	–	30.2%
Cc1cc2c(cc1N1C(=O)c3cccc4c(CCCO)ccc(c34)C1=O)n(C)c(=O)n2C (racemic)	BRD3 BD2	binding, BROMOscan binding	–	100 nM	–	91%
Cc1cc(-c2ccnc3[nH]cc(F)c23)cc(F)c1[C@@]1(O)[C@H](C)CN(C(=O)CN)C[C@@H]1C	STK38	ATP probe binding, KiNativ, item: Lys2 site	HEK293T cell lysate	0.1 µM	–	-3.1%
COc1ccc(-n2nc(OCCCN3CCCCC3)ccc2=O)cc1	alpha2 adrenergic receptor	radioligand binding	–	1.0 µM	–	27.4 ± 3.98%

For quick reference, copied from above:
SMILES	target	test	test system	conditions	how to read	inhibition
c1ccc(OC[C@@H]2CN(CCN3CCc4ccccc43)CCO2)cc1	HTR1B	radioligand binding	–	concentration not given, together with: [3H]5-CT	–	43.5%
COc1ccccc1N1CCN(CCCCN2CCc3ccccc3C2=O)CC1	HTR1B	radioligand binding	–	concentration not given, together with: [3H]5-CT	–	84.2%
Cc1nc2sccn2c(=O)c1CCN1CCC(=C(c2ccccc2)c2ccc(F)cc2)CC1	Diacylglycerol kinase beta (Dgkb, Rattus norvegicus, UniProt P49621)	enzyme activity, DAG kinase	HEK293T lysate overexpressing	50 µM, together with: [γ32P]-ATP	baseline: DMSO control	~63%
Cc1ccc(S(=O)(=O)n2cc(/C=N/NC(=S)Nc3ccc(Cl)cc3)c3ccccc32)cc1	mushroom tyrosinase	enzyme activity, inhibitor	–	0.5 mM, together with: L-DOPA substrate	–	92.9%
Cc1ccc(NC(=S)N/N=C/c2cn(S(=O)(=O)c3ccc(C)cc3)c3ccccc23)cc1	mushroom tyrosinase	enzyme activity, inhibitor	–	0.5 mM, together with: L-DOPA substrate	–	91.7%
COc1cc(C(=O)NS(=O)(=O)c2ccccc2C)ccc1Cc1cn(C)c2ccc(NC(=O)OC3CCCC3)cc12	Volume-regulated anion channel subunit LRRC8C, part LRRC8A IL1 chimera (LRRC8C, Homo sapiens, UniProt Q8TDW0, L105R)	ion current, inhibitor, whole-cell patch clamp	HCT LRRC8-/- cells	30 µM, +100 mV	–	89.6% and 96.1% and 88.2% and 91.7% and 94% and 84.9%
